Published values gathered from unrelated publications.
A part holds a random share of what one study measured.

Study 1 — method: protein binding microarray; molecule type: double-stranded DNA, one strand shown; medium: in vitro; concentration: not given; relative to: not given; reading: higher = stronger binding
Target: Histone acetyltransferase KAT6A, winged helix 2, GST fusion (KAT6A, Homo sapiens, UniProt Q92794, residues 85-181)
Notes: 8-mer, flanks averaged, mean of 2 arrays, mostly near background
Target sequence (chain): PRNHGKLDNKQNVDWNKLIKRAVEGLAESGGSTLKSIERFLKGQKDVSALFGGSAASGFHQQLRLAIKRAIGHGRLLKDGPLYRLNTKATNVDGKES
| Sequence | E-score |
| --- | --- |
| CACGGAAG | -0.021 |
| AGCCCCAG | 0.0197 |
| ATGGGTTA | -0.0633 |
| ACGCTTCG | -0.0224 |
| CTGCCCCC | -0.00175 |
| CCATGCCC | -0.0112 |
| TGATACAA | 0.0318 |
| AGACGATA | -0.0777 |
| GACAAACC | 0.105 |
| CGCTTCGA | 0.0167 |
| ATCATTCC | -0.00477 |
| AGACTAGA | -0.275 |
| CTAGATGC | -0.0447 |
| CGATGCTC | 0.123 |
| GAGCTAGC | -0.0687 |
| AACCGATC | -0.0843 |
| CCTTATGC | 0.033 |
| GCTCAGAA | 0.0391 |
| ATTCCTTG | 0.0309 |
| ACTTCCGA | -0.102 |
| AGAATACT | -0.0615 |
| AGAAGGAT | -0.131 |
| GAGAATTA | 0.0138 |
| ATCCAGTG | 0.107 |
| GAATCTAA | 0.0712 |

Study 2 — method: RNA Bind-n-Seq; molecule type: RNA; medium: in vitro; concentration: 200 nM; notes: whole 134-nt RNA, ends assumed; added: 150 mM LiCl; relative to: input library; reading: higher = stronger binding; library: 7-deaza-guanosine replaces G
Target: Ras GTPase-activating protein-binding protein 1, full length (G3BP1, Homo sapiens, UniProt Q13283)
UniProt Q13283, sequence (whole entry, looked up): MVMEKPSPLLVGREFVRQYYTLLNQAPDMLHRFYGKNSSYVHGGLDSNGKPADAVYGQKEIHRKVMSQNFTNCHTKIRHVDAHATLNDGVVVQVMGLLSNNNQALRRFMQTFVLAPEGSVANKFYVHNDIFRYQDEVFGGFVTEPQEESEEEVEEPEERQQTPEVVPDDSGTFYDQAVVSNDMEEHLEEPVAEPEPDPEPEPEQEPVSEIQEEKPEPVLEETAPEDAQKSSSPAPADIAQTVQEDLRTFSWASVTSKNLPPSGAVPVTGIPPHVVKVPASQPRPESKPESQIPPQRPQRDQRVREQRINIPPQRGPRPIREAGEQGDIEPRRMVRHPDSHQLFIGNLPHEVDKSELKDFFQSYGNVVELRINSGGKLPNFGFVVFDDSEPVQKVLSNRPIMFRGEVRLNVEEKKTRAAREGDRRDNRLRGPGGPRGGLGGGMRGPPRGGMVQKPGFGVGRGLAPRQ
Constant ends, left off below: GGGAGUUCUACAGUCCGACGAUC … UGGAAUUCUCGGGUGUCAAGG
| Sequence | log2 enrichment |
| --- | --- |
| CUCAAGUCCUGUGCUACACAUCGUAUGUACCGAAUCGGUUUGGAAAAAGGUGGAAAGUAUUAUGUUACGCCGUUCGGAUCUGCACUUCCA | 0.07 |
| ACCAUGCAGGUGGGCAUCUUUGGGAAGUGGGGCCAGGGGGGGAUAGGGAGGGGGGUAACACUUUGGGAACAGGUGGUCCCAGGUCGUUUC | -0.178 |
| CCUCAAGUCCUGUGCUACACAUCGUAUGUACCGAAUCGGGGAGGAGGGGAGGAAAGUAUUAUGUUACGCCGUUCGGAUCUGCACUUCCAG | 0.49 |
| UUGGCGCAUGCGCCUAAAGCUGACGGGUUUGAAAUGGCUUCGAUGUUAGCCGGGACCCGACUCAGGUGAAGGUCUGGUCCCCGUAGUUGG | -0.352 |
| CACAGACAACACGCACCCACACAGACACAGAGGGAAGGGGUUGGGAUGGGGACAGGGUGCACAGCAGGGCGGGGUAGGACCCCAGUCCCU | -1.36 |
| UCAAGUCCUGUGCUACACAUCGUAUGUACCGAAUCGGGAGGGAAAGGGUUUGGGAAAGUAUUAUGUUACGCCGUUCGGAUCUGCACUUCC | -0.563 |
| AGUCCUGUGCUACACAUCGUAUGUACCGAAUCAAACCCAAACCCCCCCAAAUUUAAAAAAGUAUUAUGUUACGCCGUUCGGAUCUGCACU | 0.976 |
| GUCCUGUGCUACACAUCGUAUGUACCGAAUCGGGUUUUUUUGGGUUUUUGGGAAAGGGAAAGUAUUAUGUUACGCCGUUCGGAUCUGCAC | -0.332 |
| UGGGAGGUGGAUUUUGUUUAUUUAUUUAGCUCAUUUCCAGGGGUGGGAAUUUUUUUUUAAUAUGUGUCAUGAAUAAAGUUGUUUUUGAAA | -0.64 |
| CUCAAGUCCUGUGCUACACAUCGUAUGUACCGAAUCGGUUUGGUGGUUUUUGGAAAGUAUUAUGUUACGCCGUUCGGAUCUGCACUUCCA | 0.256 |
| UCCUGUGCUACACAUCGUAUGUACCGAAUCAAAUUUAAAUUUUUUUAAACCCCCCCAAAAAAGUAUUAUGUUACGCCGUUCGGAUCUGCA | 1.41 |

Study 3 — method: RNAcompete; molecule type: RNA; medium: in vitro; concentration: 20 nM; notes: 7-mer, probes averaged, single round; relative to: mean of 7-mers; reading: higher = stronger binding
Target: PABPC1L2, full length, GST fusion (mouse, UniProt A0ABA7IW68)
Target sequence (chain): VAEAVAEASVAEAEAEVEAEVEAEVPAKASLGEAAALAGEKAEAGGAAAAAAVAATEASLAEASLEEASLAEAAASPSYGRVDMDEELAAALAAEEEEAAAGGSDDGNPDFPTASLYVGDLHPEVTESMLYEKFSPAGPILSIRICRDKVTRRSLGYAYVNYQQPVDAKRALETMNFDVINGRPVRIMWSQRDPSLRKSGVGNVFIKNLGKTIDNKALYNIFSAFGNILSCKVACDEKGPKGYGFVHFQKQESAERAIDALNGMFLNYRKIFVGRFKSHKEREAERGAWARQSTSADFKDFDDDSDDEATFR
| Sequence | 7-mer Z-score |
| --- | --- |
| UUCUUUG | -0.286 |
| CAUCGUG | -0.208 |
| CUAAGCC | -0.121 |
| UUGACAA | -0.106 |
| UAGUCUC | -0.347 |
| UCGAGUC | -0.374 |
| CGGCGCC | -0.461 |
| GAGCCGU | -0.432 |
| UCAAUAA | 0.379 |
| UGUGCCU | -0.282 |
| UUAAUCA | -0.217 |
| AUACCUG | -0.325 |
| AGGUCUC | -0.248 |
| AUGUCAA | -0.121 |
| UUUGGAU | -0.126 |
| CCGGUCU | -0.331 |

Study 4 — method: protein-binding microarray; molecule type: double-stranded DNA, one strand shown; medium: in vitro; concentration: 940 nM top; notes: 60-bp whole probe; added: salmon DNA 0.4 mg/ml; relative to: random background probes; reading: higher = stronger binding; constant ends, left off below: GCCTAGCAC … GTCTTGATTCGCTTGACGCTGCTG
Target: Interferon regulatory factor 5, full length, phosphomimetic (IRF5, Homo sapiens, UniProt Q13568-2, residues 1-514, S451D/S453D/S456D/S462D)
| Sequence | fitted relative affinity [z-score] |
| --- | --- |
| GACGGTATCCTTATCCGGACGTGCTAG | 0.763 |
| TTATTTTTTTTATTTATAAAGTGCTAG | 1.29 |
| GACGGTATCAACTTTCGGGACGTGCTA | 1.9 |
| TTAGGACTGGACTGTCGGTTAGTGCTA | -0.482 |
| TTAGATTTCAGCTCCGATTAGTGCTAG | -0.00235 |
| TCAAGTTTCTATTTTCTACTGTGCTAG | 4.21 |
| GACGCTTTCGGTTTCGGGACGTGCTAG | 8.17 |
| TTAGGACTGTGACTGGGTTAGTGCTAG | -0.499 |
| CCTAATCTCAGCCTCCGTCAGTGCTAG | 0.869 |
| GACGGACTGGGACTTGGGACGTGCTAG | -0.895 |
| TCATTTCTTTTATTAGTACTGTGCTAG | 1.61 |
| TTAGATATCAGATTCGATTAGTGCTAG | 0.403 |
| GACGGTTTCGGATTCGGGACGTGCTAG | 7.03 |
| GACGAACTGAGACTGGAGGCGTGCTAG | -0.186 |
| TCATTTCTCTGTTCTAGACTGTGCTAG | 1.72 |
| TTAGTTCTCGGTTTCGGTTAGTGCTAG | 11 |
| CTCCCTTTCAGTTTTCCTATGTGCTAG | 2.16 |
| TGAGCTACAGATGAGGCTCGGTGCTAG | -0.64 |
| TTAGGTTTCCTACTGATTTAGTGCTAG | 0.915 |
| TGAGGACTGGGACTGGGTTAGTGCTAG | -0.656 |
| GAAGAACTGAGTATCGAGACGTGCTAG | 1.21 |
| ATATACCTGAATATCTTCAGGTGCTAG | -0.156 |
| TTAGTTATCGACTTTCGGTTAGTGCTA | 3.45 |
| TTAGGTATCCTTTTCCGTTAGTGCTAG | 0.578 |

Study 5 — method: RNA Bind-n-Seq; molecule type: RNA; medium: in vitro; concentration: 365 nM; relative to: no-protein control; reading: higher = stronger binding
Target: RNA binding protein fox-1 homolog 2, RRM domain, GST-SBP tag (RBFOX2, Homo sapiens, UniProt O43251-10, residues 100-194)
Notes: natural RNA segment, single round, ends assumed
Constant ends, left off below: GGGAGUUCUACAGUCCGACGAUC … UGGAAUUCUCGGGUGCCAA
Construct (chain): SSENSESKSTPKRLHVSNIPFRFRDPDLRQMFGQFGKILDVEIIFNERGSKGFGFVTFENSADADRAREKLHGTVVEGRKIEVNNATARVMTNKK
| Sequence | RBNS enrichment (R) |
| --- | --- |
| GUACAUCUAACUAGGACUCAGAAAGAGCUCCUGCGCAUGGUCAUAGAACAAUGGCGUUCUGUAAUUUCCUUCAUUCUGCUUCAUAGUUGCUGACAUCUCAGAGACGCCAU | 17.5 |
| UGUAACUUAAUACCAGUAGUCAACCACUGGAUCUCAGUUUUCAUCAAGUAUUUUAAAUAAAUAAUCUUAAAUUUUAAAAUACGUACUGCAGAGUAUGCCAGUAUCUUAUU | 0.508 |
| GCUCAAUCUAGGACUCUCAGCUUCCUGCGCUGCUGGACACAUUGACCUCUGUGCAAACAUUGUAGACUUCUUAUUGCUACUCAAUUCUUGCUACUGCUCAUGAUUCAAAU | 0.648 |
| CAGUUUUAUAAGUGAAAAUUUUAUUUUAAAAAACAGUGGUUUUUUUUUUUGGGUAUGUCUGGAUCAUUCAGACAGUACAUUUGAAUUCCGCUGAAUGUAGAUAAAUAAAA | 1.18 |
| CCACAAACCAUUAUAAAACCCAACAUAUAUACUGAAAAUACUGAGAACUGCUUUGAAAAUUUGGAAUAUCUGAUAACUCCAGUGGGCCAAGACAUGGUGGAUAAAAAUGU | 0.446 |
| UCACCCAAGUCACAGGAUGAUUAUUAAAAGAACACACACACCAAAAAACAUACUUAUCCUAAAGAGAUGGUGAGAUAUAACAUGCCUUAAAUUAUAUUAUAGAAUUUAAA | 0.64 |
| GUGGUGCAAUCAUGGUUCACUGCAGUCUUGACCUUUUGGGCUCAAGUGAUCCUCCCACCUCAGCCUCCUGAGUAGCUGGGACCAUAGGCUCACAACACCACACCUGGCAA | 0.287 |
| UAUCGGCUCUGGCUCCCCGGAACCAUUAGAGACUAACUGUUGUUUCCACAAAGGAGGGCUGAGAGUGAACGUGAUCAUACGUAGUUGUGAAAUCGGUUUGAUUGAGUGGG | 0.718 |
| CAAAUGCUGUCCUUUCCCUUACAGAGAAGAACAAUGGUAACUAAAAGCUGCAUAUAACUAGCAAUAACUACAUUGAACGGUGUGCAUUGUUCAUGAUUGUUGUGUUUUAA | 0.333 |
| UGCAAAUGAAAACAAGGGAGGGAAAGUUGUAUUAUUUCCUGCACUGGGUUACCCGUGUGUGUUAUCGUUUAAACUGUAUUCACAUAAUGUCAUUUGCCUUGCUCACUUGU | 0.313 |
| UGGAUCCAUUUCCCUGGUCUUGGCCUCACUCUCAUGCAGGCUUUCCUCUUGUGUUGGCAAGAUGGCUGCCAACUCUUGGCAAUUCAUACAUCCUUGUUUCUGUCUGGUAG | 0.497 |
| GGAGAGCGGUGUUCUUCACUCGACUCCACCCUGCUGGACACAGGAAAAUUUCAAUUGCUAAAAAAAAAUCAAAGCACUCAUUCACUUGGGGGGAGGAUCCUACGCAGGGG | 0.612 |

Some of these lines once more (study 3):
| Sequence | 7-mer Z-score |
| --- | --- |
| UCAAUAA | 0.379 |
| UGUGCCU | -0.282 |
| UUAAUCA | -0.217 |
| AUACCUG | -0.325 |
| AGGUCUC | -0.248 |
| AUGUCAA | -0.121 |
| UUUGGAU | -0.126 |
